Assay results gathered from unrelated publications.
Compare with care: the assays were run in different laboratories. Several values in a cell are separate wells, animals, samples, runs or records.
Effect on: metabolic stability
Sample: liver microsomes

SMILES	test system	setting	microsomal CLint
COc1cc(C)c(-c2ccc(O)c3c2C[C@@H](C)N[C@@H]3C)c2cccc(O)c12 (single isomer, unassigned)	male CD-1 mouse	1 µM	95.1 µL/min/mg
CCc1nc(N)nc(N)c1C#C[C@H](C)c1cc(-c2cc(C)nc(C)c2)ccc1Cl	mouse	–	18 µL/min/mg
CNC(=O)c1cc(C)ccc1NC(=O)c1ccc(-c2cc(O)ccc2C)c(C)c1	mouse	2 µM	33 µL/min/mg
Cc1cc(N2CCC(C#N)(C3(C)CC3)C2=O)cc(C(=O)NCc2cc(F)cc(-c3cnn(C)c3)c2)n1 (racemic)	mouse	0.5 µM	71 µL/min/mg
O=C(c1ccc(-c2cc3nccc(-c4ccc5cnccc5c4)c3o2)cc1)N1CCNCC1	mouse	–	180 µL/min/mg
COC(=O)c1ccc2c(c1)NC(=O)/C2=C(\Nc1ccc2c(c1)CCN2C(=O)CN1CCOCC1)c1ccccc1	CD-1 mouse	10 µM, pH 7.4	40 µL/min/mg
CNC(=O)C1CCN(c2cc(C)ccc2NC(=O)c2ccc(-c3cc(O)ccc3C)c(C)c2)CC1	mouse	2 µM	142 µL/min/mg
CCc1nc(N)nc(N)c1C#CC(C)c1cccc(-c2cc(C)nc(C)c2)c1 (racemic)	mouse	–	~70 µL/min/mg and 69 µL/min/mg
O=C(Nc1ccc(OCCN2CCCC2)cc1)c1cc2ccc(Cl)cc2s1	female mouse	–	25 µL/min/mg
O=C(NCCNCCO)c1cn(Cc2ccc(F)cc2)c2cc(Cl)c(OCc3ccc(C(F)(F)F)cc3)cc2c1=O	male CD-1 mouse	1 µM	< 11.6 µL/min/mg
CNC(=O)C1CCN(c2ccccc2NC(=O)c2ccc(-c3cc(O)ccc3C)c(C)c2)CC1	mouse	2 µM	230 µL/min/mg
O=C(C1CCN(c2nnnn2-c2ccccc2)CC1)N1CCCc2ccccc21	mouse	1 µM	> 578 µL/min/mg
COc1cc2c(=O)c(C(=O)NCCNCCO)cn(Cc3ccccc3)c2cc1OCc1ccc(C(C)(C)C)cc1	male CD-1 mouse	1 µM	< 11.6 µL/min/mg
Oc1cc2nc(c1)CNCc1cc(O)cc(n1)CNC2	mouse	–	5.4 µL/min/mg
CCc1nc(N)nc(N)c1C#CC(C)c1cc(-c2cc(C)nc(C)c2)ccc1OC (stereo not drawn)	male CD-1 mouse	5 µg/mL, pH 7.4	40 µL/min/mg
NC[C@@H](C(=O)Nc1ccc(-c2cn[nH]c2)cc1)c1ccccc1	mouse	–	45.4 µL/min/mg
CCc1nc(N)nc(N)c1C#CC(C)c1cc(-c2cc(C)nc(C)c2)ccc1OC(F)(F)F (racemic)	mouse	–	~22 µL/min/mg
CCn1cc(C(=O)NCCNCCO)c(=O)c2cc(OCc3ccc(F)cc3)c(Cl)cc21	male CD-1 mouse	1 µM	< 11.6 µL/min/mg

Some of these lines once more:
SMILES	test system	setting	microsomal CLint
COc1cc2c(=O)c(C(=O)NCCNCCO)cn(Cc3ccccc3)c2cc1OCc1ccc(C(C)(C)C)cc1	male CD-1 mouse	1 µM	< 11.6 µL/min/mg
Oc1cc2nc(c1)CNCc1cc(O)cc(n1)CNC2	mouse	–	5.4 µL/min/mg
